Assay results from different studies.
A part holds a random share of what one study measured. Positions count from the first letter of the parent shown.

Sample 1 — technique: RNA Bind-n-Seq; form: RNA; matrix: in vitro; concentration: 200 nM; notes: whole 134-nt RNA, ends assumed; added: 150 mM LiCl; reference: input library; direction: higher = stronger binding; library: 7-deaza-guanosine replaces G
Target: Ras GTPase-activating protein-binding protein 1, full length (G3BP1, Homo sapiens, UniProt Q13283)
UniProt Q13283, sequence (whole entry, looked up): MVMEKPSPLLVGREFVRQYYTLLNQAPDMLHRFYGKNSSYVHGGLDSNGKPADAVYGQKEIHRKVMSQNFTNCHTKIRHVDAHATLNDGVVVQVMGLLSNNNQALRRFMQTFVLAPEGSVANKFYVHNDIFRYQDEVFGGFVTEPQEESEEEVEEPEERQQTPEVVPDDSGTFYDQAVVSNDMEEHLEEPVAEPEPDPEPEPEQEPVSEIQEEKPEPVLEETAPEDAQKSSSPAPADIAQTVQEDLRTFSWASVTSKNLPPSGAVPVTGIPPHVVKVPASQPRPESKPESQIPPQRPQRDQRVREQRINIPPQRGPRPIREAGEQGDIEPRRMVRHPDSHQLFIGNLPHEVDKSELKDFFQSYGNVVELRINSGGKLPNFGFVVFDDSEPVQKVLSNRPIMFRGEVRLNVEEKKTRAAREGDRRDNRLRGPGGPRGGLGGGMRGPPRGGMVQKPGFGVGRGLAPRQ
For `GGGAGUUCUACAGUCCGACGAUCUUCAGUUGGAUGGAUUUAUUGCUCGAAACUGGGCCAAUCAAAGAUCAGCUUUGGGAAGUGCUCUUGAUCCACUUGCUGAUAAAAUACUUAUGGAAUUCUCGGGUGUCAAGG`, the log2 enrichment was -2.49.
With `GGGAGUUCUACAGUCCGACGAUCAAGUCCUGUGCUACACAUCGUAUGUACCGAAUCGGCCCCGGCCCCGGGGCCCCGGGGAAAGUAUUAUGUUACGCCGUUCGGAUCUGCACUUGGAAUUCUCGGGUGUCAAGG` the log2 enrichment was -1.33.
The log2 enrichment of `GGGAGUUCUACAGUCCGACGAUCCCUCAAGUCCUGUGCUACACAUCGUAUGUACCGAAUCGGGCCGGCCGGCCGGGAAAGUAUUAUGUUACGCCGUUCGGAUCUGCACUUCCAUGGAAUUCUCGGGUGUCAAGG` is reported as 0.629.
`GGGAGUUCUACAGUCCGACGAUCAAGUCCUGUGCUACACAUCGUAUGUACCGAAUCGGGGAAAAGGGAAAAGGGAAAAGGAAAGUAUUAUGUUACGCCGUUCGGAUCUGCACUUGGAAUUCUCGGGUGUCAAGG` gave a log2 enrichment of 0.147.
`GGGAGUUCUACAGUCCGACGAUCCCUGUGCUACACAUCGUAUGUACCGAAUCGGGGUUUGGGGUUUUUGGGGAAAAAAAGGGGAAAGUAUUAUGUUACGCCGUUCGGAUCUGCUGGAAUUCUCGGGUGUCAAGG` gave a log2 enrichment of 0.394.

Sample 2 — target: CCNB1, cyclin fold, Cln2 fusion (human); technique: yeast growth competition, sequencing; matrix: yeast; notes: weak parent motif; reference: not given; direction: higher = stronger binding
Starting sequence: CDKN1B docking peptide (human); PSACRNLFGPVDH
For `PSACRNLFGPVKH [D12K]`, “normalised enrichment score” read 0.513.
Under “normalised enrichment score”, `PSACRNLFFPVDH [G9F]` is recorded as -0.0138.
For `PSACRNLWGPVDH [F8W]`, “normalised enrichment score” read 0.394.
`PSACRNLFSPVDH [G9S]` — result for “normalised enrichment score”: -0.179.

Mixed results
`GNL2 (Homo sapiens, UniProt Q13823)`: cross-linked residues “T265 to K270” (RPF2 (Homo sapiens, UniProt Q9H7B2); cross-linking MS; cell fractions; added: DSSO).
For `PhoQ, residues 284 288 289 292 302 303 HSYLQF`, the fold induction was 1.12 (PhoP, residues 12 14 15 18 19 TPWLV (Escherichia coli, UniProt P23836); Sort-seq, item: YFP reporter; E. coli; PhoQ-PhoP variant library, added: 10 µM Mg2+; reference: high Mg2+ state, higher = stronger signaling).
`HNRNPM (Homo sapiens, UniProt P52272)`: interaction screen “cross-linked” (MYEF2 (Homo sapiens, UniProt Q9P2K5); cross-linking MS; hits only).

A few entries again (sample 1):
With `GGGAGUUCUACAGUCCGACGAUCAAGUCCUGUGCUACACAUCGUAUGUACCGAAUCGGCCCCGGCCCCGGGGCCCCGGGGAAAGUAUUAUGUUACGCCGUUCGGAUCUGCACUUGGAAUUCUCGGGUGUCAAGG` the log2 enrichment was -1.33.
The log2 enrichment of `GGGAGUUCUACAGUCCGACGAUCCCUCAAGUCCUGUGCUACACAUCGUAUGUACCGAAUCGGGCCGGCCGGCCGGGAAAGUAUUAUGUUACGCCGUUCGGAUCUGCACUUCCAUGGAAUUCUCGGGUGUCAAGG` is reported as 0.629.
